Measured values gathered from unrelated publications.
Protocols differ between the studies behind these lines. ± marks the error that the study gave.
Organism: Escherichia coli

SMILES | assay | system | setting | scale | MIC
CC1(C)S[C@@H]2[C@H](NC(=O)C(C(=O)O)c3ccccc3)C(=O)N2[C@H]1C(=O)O (some centres unmarked) | broth microdilution | Keio mutant JW5086-3 | 18 h, ferrienterobactin permease gene | – | 6.12 µg/mL
CC[C@H](C)[C@H](NC(=O)[C@H](CCCCN)NC(=O)[C@H](CCCCN)NC(=O)CNC(=O)[C@H](CCCCN)NC(=O)[C@H](CC(C)C)NC(=O)[C@H](CCCCN)NC(=O)[C@H](CCCNC(=N)N)NC(=O)[C@@H](NC(=O)[C@H](CC(C)C)NC(=O)[C@H](CCCNC(=N)N)NC(=O)[C@@H](N)CCCNC(=N)N)[C@@H](C)CC)C(=O)N[C@@H](Cc1ccc(O)cc1)C(=O)N[C@@H](CC(C)C)C(=O)N[C@@H](Cc1ccc(O)cc1)C(=O)N[C@@H](Cc1ccccc1)C(=O)N[C@@H](CCCCN)C(=O)N[C@@H](CC(C)C)C(=O)N[C@@H](CCC(N)=O)C(=O)N[C@@H](CC(C)C)C(=O)N[C@@H](CC(C)C)C(=O)N[C@@H](CCCCN)C(=O)N[C@@H](CCCCN)C(N)=O | – | KCTC 1682, Mueller-Hinton broth | with: 4.5 mM KCl | – | 16 µM
CC[C@H](C)[C@H](NC(=O)[C@H](CC(C)C)NC(=O)[C@@H](NC(=O)[C@H](CCCNC(=N)N)NC(=O)[C@H](CCCNC(=N)N)NC(=O)[C@H](CCCNC(=N)N)NC(=O)[C@@H](N)CCCNC(=N)N)[C@@H](C)CC)C(=O)N[C@@H](CCCNC(=N)N)C(=O)N[C@@H](CCCNC(=N)N)C(=O)N[C@H](C(=O)N[C@@H](CC(C)C)C(=O)N[C@@H](CCCNC(=N)N)C(=O)N[C@@H](CC(C)C)C(=O)N[C@@H](CCCNC(=N)N)C(=O)N[C@@H](CO)C(=O)N[C@@H](CO)C(=O)N[C@@H](C)C(=O)N[C@@H](Cc1ccc(O)cc1)C(N)=O)C(C)C | checkerboard | – | 24 h, 37 °C, alone, rifampicin plate | – | 16 µM
CC(C)Oc1c(NC(=O)c2ccc(NC(=O)[C@H](CC(N)=O)NC(=O)c3ccc(/N=N/c4ccc(C#N)cc4)cc3)cc2)ccc(C(=O)Nc2ccc(C(=O)O)cc2)c1O | – | BW25113 | 18 h, 37 °C, dark-adapted state | – | 0.64 µg/mL
CCCCCCC/C=C/C(=O)N1C(=O)/C(=C(/C)O)C(=O)C1Cc1ccc(OC(C)(C)C)cc1 (centres unmarked) | – | K12 ΔtolC | – | – | 12.5 µg/mL
CC[C@H](C)[C@H](NC(=O)[C@H](CC(C)C)NC(=O)[C@H](CCCCN)NC(=O)[C@@H](NC(=O)[C@H](C)NC(=O)[C@H](CCC(=O)O)NC(=O)[C@H](Cc1c[nH]cn1)NC(=O)[C@@H](NC(=O)[C@H](CCCCN)NC(=O)[C@H](CCC(N)=O)NC(=O)[C@H](Cc1ccccc1)NC(=O)[C@@H](NC(=O)[C@H](CCCCN)NC(=O)[C@H](CCCCN)NC(=O)[C@H](CC(C)C)NC(=O)[C@H](C)N)C(C)C)[C@@H](C)CC)[C@@H](C)CC)C(N)=O | CLSI broth microdilution | ATCC 25922 | 18 h, 37 °C | – | 4 µM
CC[C@H](C)[C@H](NC(=O)[C@H](CO)NC(=O)CNC(=O)[C@H](CCCCN)NC(=O)[C@@H](NC(=O)[C@H](CC(N)=O)NC(=O)[C@H](Cc1ccccc1)NC(=O)[C@H](CC(N)=O)NC(=O)[C@@H](NC(=O)[C@H](CCCNC(=N)N)NC(=O)[C@@H]1CCCN1C(=O)[C@H](CCCNC(=N)N)NC(=O)[C@@H](NC(=O)[C@H](CCCNC(=N)N)NC(=O)[C@H](CCCNC(=N)N)NC(=O)[C@@H](NC(=O)[C@H](CCCNC(=N)N)NC(=O)[C@H](CO)NC(=O)[C@H](CC(C)C)NC(=O)[C@H](Cc1ccccc1)NC(=O)[C@H](CCCNC(=N)N)NC(=O)CNC(=O)[C@H](Cc1ccccc1)NC(=O)[C@H](CCCNC(=N)N)NC(=O)CNC(=O)[C@H](CCCNC(=N)N)NC(=O)[C@H](CCC(N)=O)NC(=O)[C@@H](NC(=O)[C@@H](N)CC(C)C)C(C)C)[C@@H](C)CC)[C@@H](C)CC)[C@@H](C)CC)[C@@H](C)CC)C(=O)O | broth microdilution | ATCC 25922, Mueller-Hinton broth | 16 to 20 h, 37 °C | – | 2.49 µM
CC[C@H](C)[C@H](N)C(=O)N[C@@H](CC(C)C)C(=O)NCC(=O)N[C@H](CCCNC(=N)N)C(=O)N[C@H](C(=O)N[C@@H](Cc1c[nH]c2ccccc12)C(=O)N[C@@H](CCCCN)C(=O)NCC(=O)N[C@H](C(=O)N[C@@H](CCCCN)C(=O)N[C@@H](CC(=O)O)C(=O)N[C@H](C(=O)N[C@@H](CC(C)C)C(N)=O)[C@@H](C)CC)[C@@H](C)CC)[C@@H](C)CC | broth microdilution | ATCC 25922 | with: NaCl 150 mM | – | 12.5 µM
Cc1cc(C(=O)Nc2ccc(C(=O)N[C@@H](CC(N)=O)C(=O)Nc3ccc(C(=O)Nc4ccc(C(=O)Nc5ccc(C(=O)O)cc5)c(O)c4OC(C)C)cc3)cc2)ccc1C#N | – | K12 ΔtolC | – | – | 0.03 µg/mL
CC[C@H](C)[C@H](NC(=O)CNC(=O)[C@H](CC(=O)O)NC(=O)[C@H](CCCNC(=N)N)NC(=O)[C@@H](NC(=O)[C@H](CC(N)=O)NC(=O)[C@H](CCCNC(=N)N)NC(=O)CNC(=O)[C@@H](NC(=O)[C@H](CCCCN)NC(=O)[C@H](CCC(=O)O)NC(=O)[C@@H](NC(=O)[C@H](CCCCN)NC(=O)[C@H](CCCCN)NC(=O)[C@H](Cc1ccccc1)NC(=O)[C@@H](NC(=O)[C@H](CCCCN)NC(=O)[C@H](Cc1c[nH]c2ccccc12)NC(=O)[C@@H](N)CCCNC(=N)N)[C@@H](C)CC)[C@@H](C)CC)C(C)C)C(C)C)C(=O)N[C@H](C(=O)N[C@@H](CCCCN)C(=O)N[C@@H](C)C(=O)NCC(=O)NCC(=O)N[C@@H](C)C(=O)N[C@H](C(=O)N[C@@H](C)C(=O)N[C@H](C(=O)N[C@H](C(=O)NCC(=O)N[C@@H](CCC(N)=O)C(=O)N[C@@H](C)C(=O)N[C@@H](C)C(=O)N[C@H](C(=O)N[C@H](C(=O)N[C@H](C(=O)N[C@@H](CCCCN)C(N)=O)C(C)C)C(C)C)[C@@H](C)O)C(C)C)C(C)C)C(C)C)[C@@H](C)CC | – | KCTC 1682, Mueller-Hinton broth | 16 h, 37 °C | growth inhibition over 99% | 1 µM
CN(C)c1cc(NC(=O)CNC(C)(C)C)c(O)c2c1C[C@H]1C[C@H]3[C@H](N(C)C)C(O)=C(C(N)=O)C(=O)[C@@]3(O)C(O)=C1C2=O | – | DH5a clone with KPC-136 | – | – | 0.125 µg/mL
CC1(C)SC2C(NC(=O)C(NC(=O)C3=C(O)C(Cc4ccc(O)cc4)NC3=O)c3ccccc3)C(=O)N2C1C(=O)O (centres unmarked) | broth microdilution | Keio mutant JW5086-3 | 18 h, ferrienterobactin permease gene | – | 25 µg/mL
C[C@@H](O)[C@H]1C(=O)N2C(C(=O)O)=C(SCCN=CN)C[C@H]12 | – | NCCP 16044 carbapenem-resistant, Mueller-Hinton broth | 16 h, 37 °C | – | 8 µM
CC[C@H](C)[C@H](NC(=O)[C@H](CCCCN)NC(=O)[C@H](Cc1c[nH]c2ccccc12)NC(=O)[C@H](Cc1c[nH]c2ccccc12)NC(=O)[C@H](CCCCN)NC(=O)[C@H](CCCCN)NC(=O)[C@H](CCCCN)NC(=O)[C@H](Cc1c[nH]c2ccccc12)NC(=O)[C@H](CCCCN)NC(=O)[C@H](CCCCN)NC(=O)[C@H](Cc1c[nH]c2ccccc12)NC(=O)[C@H](CCCCN)NC(=O)[C@H](CCCCN)NC(=O)[C@@H](NC(=O)[C@@H](NC(=O)[C@H](CCCCN)NC(=O)[C@@H](N)CCCNC(=N)N)[C@@H](C)CC)[C@@H](C)CC)C(=O)N[C@@H](Cc1c[nH]c2ccccc12)C(=O)N[C@@H](Cc1c[nH]c2ccccc12)C(=O)N[C@@H](CCCCN)C(=O)NCCOCCOCC(N)=O | broth microdilution | 25922 | – | – | 1.9 µg/mL
CC1(C)S[C@@H]2[C@H](NC(=O)Cc3ccccc3)C(=O)N2[C@H]1C(=O)O | – | BL21(DE3) wild type | – | – | 31.2 µg/mL
CC[C@H](C)[C@H](NC(=O)[C@H](CCCNC(=N)N)NC(=O)[C@H](CCC(N)=O)NC(=O)[C@@H](NC(=O)[C@@H](NC(=O)[C@H](CCCNC(=N)N)NC(=O)[C@@H](N)CCCCN)[C@@H](C)CC)C(C)C)C(=O)N[C@@H](CCCCN)C(=O)N[C@@H](CC(=O)O)C(=O)N[C@@H](Cc1ccccc1)C(=O)N[C@@H](CC(C)C)C(=O)N[C@@H](CCCNC(=N)N)C(N)=O | broth microdilution | K12 | 16 h, 37 °C | – | 64 ± 22 µM
Oc1cc(Cl)ccc1Oc1ccc(Cl)cc1Cl | – | MG1655 FabI A116V Debio-1452-NH3-resistant | – | – | 0.5 µg/mL
CC[C@H](C)[C@H](NC(=O)[C@H](CC(C)C)NC(=O)[C@H](CCCNC(=N)N)NC(=O)[C@@H](N)CCCNC(=N)N)C(=O)N[C@@H](CCCNC(=N)N)C(=O)N[C@H](C(=O)N[C@@H](CC(C)C)C(=O)N[C@H](C(=O)NCC(=O)N1CCC[C@H]1C(=O)N[C@H](C(=O)N[C@H](C(=O)N[C@@H](Cc1ccc(O)cc1)C(=O)N[C@@H](CC(C)C)C(=O)N[C@@H](Cc1ccc(O)cc1)C(=O)N[C@@H](Cc1ccccc1)C(=O)N[C@@H](CCCCN)C(=O)N[C@@H](CC(C)C)C(=O)N[C@@H](CCC(N)=O)C(=O)N[C@@H](CC(C)C)C(=O)N[C@@H](CC(C)C)C(=O)N[C@@H](CCCCN)C(=O)N[C@@H](CCCCN)C(N)=O)[C@@H](C)CC)[C@@H](C)CC)[C@@H](C)O)[C@@H](C)O | broth microdilution | KCTC 1682, Mueller-Hinton broth | 24 h, 37 °C | – | 64 µM
CC[C@H](C)[C@H](NC(=O)[C@H](Cc1c[nH]c2ccccc12)NC(=O)[C@@H](NC(=O)[C@@H](NC(=O)[C@@H](NC(=O)[C@H](CCCNC(=N)N)NC(=O)[C@@H](N)CCCNC(=N)N)[C@@H](C)CC)[C@@H](C)O)[C@@H](C)CC)C(=O)N[C@H](C(=O)N[C@H](C(=O)N[C@@H](CCCNC(=N)N)C(=O)N[C@@H](CCCNC(=N)N)C(N)=O)[C@@H](C)CC)[C@@H](C)O | – | UB1005 | 24 h, 37 °C | – | 8 µM
c1ccc(CNCc2ccccn2)nc1 | – | NDM-1 producing | compound alone | – | 1000 µM

A few entries again:
SMILES | assay | system | setting | scale | MIC
CC[C@H](C)[C@H](NC(=O)[C@H](CCCCN)NC(=O)[C@H](Cc1c[nH]c2ccccc12)NC(=O)[C@H](Cc1c[nH]c2ccccc12)NC(=O)[C@H](CCCCN)NC(=O)[C@H](CCCCN)NC(=O)[C@H](CCCCN)NC(=O)[C@H](Cc1c[nH]c2ccccc12)NC(=O)[C@H](CCCCN)NC(=O)[C@H](CCCCN)NC(=O)[C@H](Cc1c[nH]c2ccccc12)NC(=O)[C@H](CCCCN)NC(=O)[C@H](CCCCN)NC(=O)[C@@H](NC(=O)[C@@H](NC(=O)[C@H](CCCCN)NC(=O)[C@@H](N)CCCNC(=N)N)[C@@H](C)CC)[C@@H](C)CC)C(=O)N[C@@H](Cc1c[nH]c2ccccc12)C(=O)N[C@@H](Cc1c[nH]c2ccccc12)C(=O)N[C@@H](CCCCN)C(=O)NCCOCCOCC(N)=O | broth microdilution | 25922 | – | – | 1.9 µg/mL
